Assay results from different studies.
Numbered parts are unrelated; each lists some results of a single study. Several values in a cell are separate wells, animals, samples, runs or records. Numbers after ± are the reported error.
Sequence of UniProt Q86U86 (whole entry, looked up): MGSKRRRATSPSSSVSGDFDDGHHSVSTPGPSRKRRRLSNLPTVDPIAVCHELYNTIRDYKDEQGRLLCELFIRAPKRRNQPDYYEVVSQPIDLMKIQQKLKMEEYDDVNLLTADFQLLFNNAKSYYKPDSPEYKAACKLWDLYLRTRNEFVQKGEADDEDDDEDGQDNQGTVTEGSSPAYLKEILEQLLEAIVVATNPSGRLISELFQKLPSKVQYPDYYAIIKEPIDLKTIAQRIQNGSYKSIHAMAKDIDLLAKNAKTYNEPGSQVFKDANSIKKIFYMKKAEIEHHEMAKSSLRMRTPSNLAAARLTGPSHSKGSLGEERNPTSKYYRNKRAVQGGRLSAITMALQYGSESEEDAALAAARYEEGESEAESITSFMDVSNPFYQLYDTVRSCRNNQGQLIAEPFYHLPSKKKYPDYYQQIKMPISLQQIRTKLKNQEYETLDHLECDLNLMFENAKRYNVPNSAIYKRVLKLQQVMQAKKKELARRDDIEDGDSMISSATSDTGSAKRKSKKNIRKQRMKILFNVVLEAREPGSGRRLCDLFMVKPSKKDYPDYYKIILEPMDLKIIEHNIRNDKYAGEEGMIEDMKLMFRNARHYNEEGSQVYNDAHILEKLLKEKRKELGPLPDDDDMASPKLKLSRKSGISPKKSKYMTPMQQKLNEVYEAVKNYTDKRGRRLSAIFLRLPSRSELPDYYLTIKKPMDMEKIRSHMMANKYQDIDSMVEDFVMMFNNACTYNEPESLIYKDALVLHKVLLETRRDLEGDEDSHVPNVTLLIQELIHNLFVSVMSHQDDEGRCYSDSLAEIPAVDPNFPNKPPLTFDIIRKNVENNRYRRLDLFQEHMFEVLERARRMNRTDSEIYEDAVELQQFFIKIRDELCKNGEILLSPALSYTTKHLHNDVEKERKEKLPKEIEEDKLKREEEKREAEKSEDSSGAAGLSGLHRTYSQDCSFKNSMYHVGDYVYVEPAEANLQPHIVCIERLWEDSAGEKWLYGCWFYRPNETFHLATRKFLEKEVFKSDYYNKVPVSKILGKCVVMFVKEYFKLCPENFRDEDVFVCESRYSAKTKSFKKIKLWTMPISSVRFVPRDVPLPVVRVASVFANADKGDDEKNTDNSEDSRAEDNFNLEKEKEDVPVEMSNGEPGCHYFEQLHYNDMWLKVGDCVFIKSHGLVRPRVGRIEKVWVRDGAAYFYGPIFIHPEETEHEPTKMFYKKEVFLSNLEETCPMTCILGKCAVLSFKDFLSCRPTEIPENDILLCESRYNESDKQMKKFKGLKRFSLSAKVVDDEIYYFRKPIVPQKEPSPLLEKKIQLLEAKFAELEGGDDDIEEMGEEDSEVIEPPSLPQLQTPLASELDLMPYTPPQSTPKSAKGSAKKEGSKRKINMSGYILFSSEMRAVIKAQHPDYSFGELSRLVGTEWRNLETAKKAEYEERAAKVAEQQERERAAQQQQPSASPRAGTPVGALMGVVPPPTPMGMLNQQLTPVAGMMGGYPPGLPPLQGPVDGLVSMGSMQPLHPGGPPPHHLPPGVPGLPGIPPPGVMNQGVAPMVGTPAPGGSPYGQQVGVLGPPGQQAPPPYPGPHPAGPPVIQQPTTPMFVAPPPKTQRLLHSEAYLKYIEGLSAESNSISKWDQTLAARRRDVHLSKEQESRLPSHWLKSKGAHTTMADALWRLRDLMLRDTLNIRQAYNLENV

Series 1
SMILES: CCCCN(CCCC)C(=O)CN1C[C@H](c2cc(OC)c3c(c2)OCO3)[C@@H](C(=O)O)[C@@H]1CC(C)(C)CCC
Observed: cell-free assay
Technique: competition with immobilised ligand
Concentration: 1 µM
target | remaining binding
EGFR (Homo sapiens, UniProt P00533, del747-750/T751S) | 95.6%
HIPK3 (Homo sapiens, UniProt Q9H422) | 100%
EPHB3 (Homo sapiens, UniProt P54753) | 100%
MAPK7 (Homo sapiens, UniProt Q13164) | 100%
MAPK12 (Homo sapiens, UniProt P53778) | 100%
MAP3K3 (Homo sapiens, UniProt Q99759) | 94.3%
MAPK13 (Homo sapiens, UniProt O15264) | 100%
DCLK2 (Homo sapiens, UniProt Q8N568) | 100%
CDK5 (Homo sapiens, UniProt Q00535) | 100%
RIPK4 (Homo sapiens, UniProt P57078) | 85.5%
SGK1 (Homo sapiens, UniProt O00141) | 69.2%
Tyrosine-protein kinase ABL1, non-phosphorylated (ABL1, Homo sapiens, UniProt P00519) | 96.5%
Aurora kinase B (AURKB, Homo sapiens, UniProt Q96GD4) | 100%
PIP5K1C (Homo sapiens, UniProt O60331) | 65.9%
PIP5K1A (Homo sapiens, UniProt Q99755) | 100%
CDK15 (Homo sapiens, UniProt Q96Q40) | 100%

Series 2
SMILES: C[S+]([O-])c1ccc(-c2nc(-c3ccncc3)c(-c3ccc(F)cc3)[nH]2)cc1 (stereo not drawn)
Concentration: 10 µM
target | observed | technique | ΔTm
Transcription initiation factor TFIID subunit 1, BD2 (TAF1, Homo sapiens, UniProt P21675) | thermal stability | DSF | 0.29 °C
Protein polybromo-1, BD6 (PBRM1, Homo sapiens, UniProt Q86U86) |  | thermal shift | 1.07 ± 0.3 °C
Bromodomain-containing protein 2, BD1 (BRD2, Homo sapiens, UniProt P25440) | thermal stability | DSF | 0.92 °C
Transcription initiation factor TFIID subunit 1-like, BD1 (TAF1L, Homo sapiens, UniProt Q8IZX4) | thermal stability | DSF | 0.21 °C
Bromodomain testis-specific protein, BD1 (BRDT, Homo sapiens, UniProt Q58F21) | thermal stability | DSF | 0.85 °C
Bromodomain-containing protein 3, BD2 (BRD3, Homo sapiens, UniProt Q15059) | thermal stability | DSF | 2.2 °C
Bromodomain-containing protein 2, BD2 (BRD2, Homo sapiens, UniProt P25440) | thermal stability | DSF | 1.4 °C
Peregrin, bromodomain (BRPF1, Homo sapiens, UniProt P55201) | thermal stability | DSF | 2.26 °C
SP140 (Homo sapiens, UniProt Q13342) | thermal stability | DSF | 1.03 °C
CREBBP (Homo sapiens, UniProt Q92793) | thermal stability | DSF | 0.92 °C
Transcription initiation factor TFIID subunit 1-like, BD2 (TAF1L, Homo sapiens, UniProt Q8IZX4) | thermal stability | DSF | -0.23 °C
KAT2B (Homo sapiens, UniProt Q92831) | thermal stability | DSF | 0.43 °C
Protein polybromo-1, BD3 (PBRM1, Homo sapiens, UniProt Q86U86) |  | thermal shift | 0.87 ± 0.18 °C
ATAD2B (Homo sapiens, UniProt Q9ULI0) | thermal stability | DSF | 0.39 °C

Series 3
Target: DNA polymerase theta, ATPase domain (POLQ, Homo sapiens, UniProt O75417)
Sequence of UniProt O75417 (whole entry, unmodified, looked up): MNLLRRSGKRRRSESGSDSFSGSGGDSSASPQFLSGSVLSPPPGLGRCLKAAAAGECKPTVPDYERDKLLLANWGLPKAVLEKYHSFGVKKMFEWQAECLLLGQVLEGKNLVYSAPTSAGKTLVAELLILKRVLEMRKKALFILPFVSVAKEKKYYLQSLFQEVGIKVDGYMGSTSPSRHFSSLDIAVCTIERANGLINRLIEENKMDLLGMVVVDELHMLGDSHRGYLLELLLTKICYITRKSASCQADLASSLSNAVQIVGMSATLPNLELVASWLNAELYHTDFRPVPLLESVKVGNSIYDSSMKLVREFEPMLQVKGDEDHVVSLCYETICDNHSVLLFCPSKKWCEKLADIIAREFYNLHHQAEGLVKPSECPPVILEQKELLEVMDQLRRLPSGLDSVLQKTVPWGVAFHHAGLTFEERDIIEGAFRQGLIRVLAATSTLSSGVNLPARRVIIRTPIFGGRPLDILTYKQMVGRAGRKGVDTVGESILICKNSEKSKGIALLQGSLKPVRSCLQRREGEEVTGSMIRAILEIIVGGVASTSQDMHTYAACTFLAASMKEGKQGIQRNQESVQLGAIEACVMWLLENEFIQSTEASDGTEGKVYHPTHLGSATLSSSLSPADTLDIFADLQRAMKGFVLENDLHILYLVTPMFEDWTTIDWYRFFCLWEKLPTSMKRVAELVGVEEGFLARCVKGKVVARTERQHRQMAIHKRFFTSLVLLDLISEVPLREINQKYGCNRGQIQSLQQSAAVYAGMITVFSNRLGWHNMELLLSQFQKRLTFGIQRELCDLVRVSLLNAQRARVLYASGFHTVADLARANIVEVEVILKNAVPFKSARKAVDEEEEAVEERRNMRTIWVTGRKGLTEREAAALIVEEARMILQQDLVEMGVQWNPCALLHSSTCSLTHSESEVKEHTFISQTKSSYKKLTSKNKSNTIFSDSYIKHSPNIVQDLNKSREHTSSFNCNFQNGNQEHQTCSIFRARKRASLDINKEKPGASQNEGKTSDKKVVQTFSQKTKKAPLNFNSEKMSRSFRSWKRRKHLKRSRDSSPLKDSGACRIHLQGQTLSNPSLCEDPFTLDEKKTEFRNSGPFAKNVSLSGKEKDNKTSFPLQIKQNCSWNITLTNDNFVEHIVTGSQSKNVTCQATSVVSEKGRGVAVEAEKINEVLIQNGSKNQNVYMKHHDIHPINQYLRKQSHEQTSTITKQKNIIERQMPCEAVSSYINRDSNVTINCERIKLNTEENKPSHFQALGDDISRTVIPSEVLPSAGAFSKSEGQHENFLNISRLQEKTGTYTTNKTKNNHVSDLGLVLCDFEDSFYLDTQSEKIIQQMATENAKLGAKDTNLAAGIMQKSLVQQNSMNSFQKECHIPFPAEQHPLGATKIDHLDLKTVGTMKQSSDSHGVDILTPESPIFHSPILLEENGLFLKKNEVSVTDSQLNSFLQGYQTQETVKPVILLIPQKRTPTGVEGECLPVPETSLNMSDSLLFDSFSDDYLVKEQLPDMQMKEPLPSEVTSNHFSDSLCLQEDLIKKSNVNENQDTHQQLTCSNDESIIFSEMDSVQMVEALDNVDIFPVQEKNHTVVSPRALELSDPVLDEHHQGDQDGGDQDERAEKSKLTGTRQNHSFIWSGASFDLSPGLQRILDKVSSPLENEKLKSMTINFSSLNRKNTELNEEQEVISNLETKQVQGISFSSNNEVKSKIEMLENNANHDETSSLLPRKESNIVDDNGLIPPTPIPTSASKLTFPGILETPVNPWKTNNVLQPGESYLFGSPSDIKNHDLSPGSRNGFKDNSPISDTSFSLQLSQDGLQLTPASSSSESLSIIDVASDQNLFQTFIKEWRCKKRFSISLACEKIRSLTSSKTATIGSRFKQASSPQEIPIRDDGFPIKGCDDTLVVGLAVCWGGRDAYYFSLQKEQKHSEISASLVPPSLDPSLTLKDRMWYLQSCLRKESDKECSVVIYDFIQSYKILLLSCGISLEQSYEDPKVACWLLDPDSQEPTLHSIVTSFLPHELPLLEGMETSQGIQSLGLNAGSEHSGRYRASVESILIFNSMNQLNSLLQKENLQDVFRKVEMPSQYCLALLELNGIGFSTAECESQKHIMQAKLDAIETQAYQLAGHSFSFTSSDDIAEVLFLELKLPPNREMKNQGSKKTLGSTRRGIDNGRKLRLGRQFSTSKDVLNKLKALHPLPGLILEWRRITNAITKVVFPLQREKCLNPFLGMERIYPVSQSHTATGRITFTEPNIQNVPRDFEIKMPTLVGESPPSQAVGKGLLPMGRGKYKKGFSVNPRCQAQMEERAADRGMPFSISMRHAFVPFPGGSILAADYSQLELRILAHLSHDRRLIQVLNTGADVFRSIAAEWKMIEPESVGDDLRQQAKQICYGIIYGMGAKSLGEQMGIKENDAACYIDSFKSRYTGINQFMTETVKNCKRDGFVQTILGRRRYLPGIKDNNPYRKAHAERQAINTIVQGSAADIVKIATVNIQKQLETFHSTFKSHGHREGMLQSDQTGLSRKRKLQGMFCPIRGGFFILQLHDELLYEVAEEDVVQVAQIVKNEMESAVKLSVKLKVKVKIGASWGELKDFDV
Observed: enzyme activity
Mode: inhibitor
Concentration: 77 µM
Relative to: untreated
SMILES | remaining activity
O=C(CCCCCCC(=O)Nc1ccc([C@H]2O[C@@H](CSc3nc(-c4ccccc4)c(-c4ccccc4)o3)C[C@@H](c3ccc(CO)cc3)O2)cc1)NO | 95.4%
C=C[C@@]1(C)CC(=O)[C@]2(O)[C@@]3(C)[C@@H](O)CCC(C)(C)[C@@H]3[C@H](O)[C@H](OC(C)=O)[C@@]2(C)O1 | 108%
CCOC(=O)[C@H](CCc1ccccc1)N[C@@H](C)C(=O)N1Cc2ccccc2C[C@H]1C(=O)O | 104%
Cn1cc(-c2ccc3ncc(Cc4ccc5ncccc5c4)n3n2)cn1 | 95.2%
N=C(N)N1CCc2ccccc2C1 | 101%
CN1CC[C@H](c2c(O)cc(O)c3c(=O)cc(-c4ccccc4Cl)oc23)[C@H](O)C1 | 109% and 79.3% and 107% and 100%
O=C(Nc1ccccc1)Nc1ccc(-c2ccc(C(=O)[C@@H]3CCC[C@H]3C(=O)O)cc2)cc1 | 101%
N#Cc1cc2nc(O)c(O)nc2cc1[N+](=O)[O-] | 97%
O=C(O)C=Cc1ccc(O)c(O)c1 | 100%
COc1cc2cc3c4cc(OC)c(OC)cc4cc[n+]3c(C)c2cc1OC | 75.7%
CC1(C)CC[C@]2(C(=O)O)CC[C@]3(C)C(=CC[C@@H]4[C@@]5(C)CC[C@H](O)C(C)(C)[C@@H]5CC[C@]43C)[C@@H]2C1 | 86.7%
C[C@](N)(Cc1ccc(O)c(O)c1)C(=O)O | 96%
O=C(O)c1cc(=O)c2ccccc2o1 | 101%
CC(C)(C#N)c1ccc(N2C(=O)OCc3cnc4ccc(-c5cnc6ccccc6c5)cc4c32)cc1 | 98.9%
C#CC(N)CCC(=O)O (stereo not drawn) | 102%
CC(=O)SCC[N+](C)(C)C | 101%
CCCCOc1cc(CC2CNC(=O)N2)ccc1OC (stereo not drawn) | 102%
CCCc1nc(C(C)(C)O)c(C(=O)OCc2oc(=O)oc2C)n1Cc1ccc(-c2ccccc2-c2nnn[nH]2)cc1 | 96.9%
CCOC(=O)[C@H](CCc1ccccc1)N[C@@H](C)C(=O)N1[C@H](C(=O)O)C[C@@H]2CCC[C@@H]21 | 95% and 99.5%
O=C(O)[C@@H]1[C@H]2C[C@H]3c4[nH]c5ccccc5c4CCN3C[C@@H]2CC[C@@H]1O | 98.1%

Series 4
Target: Tyrosine-protein kinase ZAP-70 (ZAP70, Homo sapiens, UniProt P43403)
Sequence of UniProt P43403 (whole entry, looked up): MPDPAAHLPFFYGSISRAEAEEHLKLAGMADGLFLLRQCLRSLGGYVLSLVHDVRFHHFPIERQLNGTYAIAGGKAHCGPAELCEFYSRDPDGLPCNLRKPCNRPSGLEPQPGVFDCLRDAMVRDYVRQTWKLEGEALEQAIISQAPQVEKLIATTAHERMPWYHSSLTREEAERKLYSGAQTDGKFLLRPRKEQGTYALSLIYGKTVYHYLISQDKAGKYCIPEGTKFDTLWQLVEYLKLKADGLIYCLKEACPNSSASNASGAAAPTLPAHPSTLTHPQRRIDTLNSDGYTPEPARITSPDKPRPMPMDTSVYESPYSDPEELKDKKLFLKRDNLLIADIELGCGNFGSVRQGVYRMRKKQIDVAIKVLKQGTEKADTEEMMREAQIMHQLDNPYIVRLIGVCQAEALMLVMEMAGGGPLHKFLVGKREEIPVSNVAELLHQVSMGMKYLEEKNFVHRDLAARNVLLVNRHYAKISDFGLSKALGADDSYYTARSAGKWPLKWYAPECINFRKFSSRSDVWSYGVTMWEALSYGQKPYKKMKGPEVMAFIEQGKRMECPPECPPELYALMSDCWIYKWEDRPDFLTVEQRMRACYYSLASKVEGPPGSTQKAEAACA
Observed: enzyme activity
Mode: inhibitor
Concentration: 0.5 µM
Relative to: control
Compound | remaining activity [%]
Cn1nc2c3c(cccc31)C(=O)c1ccccc1-2 | 95.1
Ic1cccc(CSc2nnc(-c3ccncc3)o2)c1 | 107
O=C1c2ccccc2-c2n[nH]c3cccc1c23 | 88.8
N#Cc1c(NC(=O)c2cccc3ccccc23)sc2c1CCCC2 | 95
c1ccc(-c2[nH]ncc2-c2ccnc3ccccc23)nc1 | 100
C[C@@H]1CCN(C(=O)CC#N)C[C@@H]1N(C)c1ncnc2[nH]ccc12 | 105
N#C/C(=C\c1ccc(O)c(O)c1)C(=O)NCc1ccccc1 | 101
O=C1C(Cl)=C(N2C(=O)CCC2=O)C(=O)c2ccccc21 | 93.8
CCOc1nc(NC(=O)Cc2cc(OC)ccc2OC)cc(N)c1C#N | 90.6
CN(C)C[C@H]1CCn2c(c(C3=C(c4cn(C)c5ccccc45)C(=O)NC3=O)c3ccccc32)C1 | 105
O=c1cc(-c2cccc3c2Sc2ccccc2S3)oc(N2CCOCC2)c1 | 97.1
COc1cc2c(cc1OC)-c1[nH]nc(Nc3cccc(F)c3)c1C2 | 95.3
c1ccc(-c2cnc(Nc3ccc(OCCN4CCCC4)cc3)s2)cc1 | 105
COc1cc2ncnc(Nc3cccc(Cl)c3)c2cc1OC | 102
CCN(CC)CCNC(=O)c1c(C)[nH]c(/C=C2\C(=O)Nc3ccc(F)cc32)c1C | 97.2
CCN(CC)CCNC(=O)c1c(C)[nH]c(/C=C2\C(=O)Nc3ccc(Cl)cc32)c1C | 91.2
O=C(Nc1cccc(Nc2nccc(Nc3cccc(C(F)(F)F)c3)n2)c1)C1CC1 | 126
Cc1nc2cc3nc(-c4cccs4)cnc3cc2n1C | 93.3
Nc1cccc(-c2cc3c(Oc4cccc(O)c4)ncnc3[nH]2)c1 | 97.5
Cc1cn(-c2cc(NC(=O)c3ccc(C)c(Nc4nccc(-c5cccnc5)n4)c3)cc(C(F)(F)F)c2)cn1 | 95.1
O=C(NC(NC(=S)Nc1ccc(F)c([N+](=O)[O-])c1)C(Cl)(Cl)Cl)C(c1ccccc1)c1ccccc1 (stereo not drawn) | 94.2
CN([C@@H](Cc1ccc(OS(=O)(=O)c2cccc3cnccc23)cc1)C(=O)N1CCN(c2ccccc2)CC1)S(=O)(=O)c1cccc2cnccc12 | 99.5
CCN(CC)C(=O)c1ccc(Nc2nc(OCC3CCCCC3)c3[nH]cnc3n2)cc1 | 94
Cc1cc2ncc(-c3ccccc3)nc2cc1C | 96.7
COc1cc2ncnc(Nc3ccc(O)c(Br)c3)c2cc1OC | 99.7

A few entries again (series 4):
Compound | remaining activity [%]
COc1cc2c(cc1OC)-c1[nH]nc(Nc3cccc(F)c3)c1C2 | 95.3
c1ccc(-c2cnc(Nc3ccc(OCCN4CCCC4)cc3)s2)cc1 | 105
COc1cc2ncnc(Nc3cccc(Cl)c3)c2cc1OC | 102
Nc1cccc(-c2cc3c(Oc4cccc(O)c4)ncnc3[nH]2)c1 | 97.5
O=C(Nc1cccc(Nc2nccc(Nc3cccc(C(F)(F)F)c3)n2)c1)C1CC1 | 126
Cc1cn(-c2cc(NC(=O)c3ccc(C)c(Nc4nccc(-c5cccnc5)n4)c3)cc(C(F)(F)F)c2)cn1 | 95.1
C[C@@H]1CCN(C(=O)CC#N)C[C@@H]1N(C)c1ncnc2[nH]ccc12 | 105
O=C1c2ccccc2-c2n[nH]c3cccc1c23 | 88.8
CN(C)C[C@H]1CCn2c(c(C3=C(c4cn(C)c5ccccc45)C(=O)NC3=O)c3ccccc32)C1 | 105
